Measured values of several laboratories.
Parts stem from different laboratories: compare values within a part only.
UniProt O95835, sequence (whole entry, looked up): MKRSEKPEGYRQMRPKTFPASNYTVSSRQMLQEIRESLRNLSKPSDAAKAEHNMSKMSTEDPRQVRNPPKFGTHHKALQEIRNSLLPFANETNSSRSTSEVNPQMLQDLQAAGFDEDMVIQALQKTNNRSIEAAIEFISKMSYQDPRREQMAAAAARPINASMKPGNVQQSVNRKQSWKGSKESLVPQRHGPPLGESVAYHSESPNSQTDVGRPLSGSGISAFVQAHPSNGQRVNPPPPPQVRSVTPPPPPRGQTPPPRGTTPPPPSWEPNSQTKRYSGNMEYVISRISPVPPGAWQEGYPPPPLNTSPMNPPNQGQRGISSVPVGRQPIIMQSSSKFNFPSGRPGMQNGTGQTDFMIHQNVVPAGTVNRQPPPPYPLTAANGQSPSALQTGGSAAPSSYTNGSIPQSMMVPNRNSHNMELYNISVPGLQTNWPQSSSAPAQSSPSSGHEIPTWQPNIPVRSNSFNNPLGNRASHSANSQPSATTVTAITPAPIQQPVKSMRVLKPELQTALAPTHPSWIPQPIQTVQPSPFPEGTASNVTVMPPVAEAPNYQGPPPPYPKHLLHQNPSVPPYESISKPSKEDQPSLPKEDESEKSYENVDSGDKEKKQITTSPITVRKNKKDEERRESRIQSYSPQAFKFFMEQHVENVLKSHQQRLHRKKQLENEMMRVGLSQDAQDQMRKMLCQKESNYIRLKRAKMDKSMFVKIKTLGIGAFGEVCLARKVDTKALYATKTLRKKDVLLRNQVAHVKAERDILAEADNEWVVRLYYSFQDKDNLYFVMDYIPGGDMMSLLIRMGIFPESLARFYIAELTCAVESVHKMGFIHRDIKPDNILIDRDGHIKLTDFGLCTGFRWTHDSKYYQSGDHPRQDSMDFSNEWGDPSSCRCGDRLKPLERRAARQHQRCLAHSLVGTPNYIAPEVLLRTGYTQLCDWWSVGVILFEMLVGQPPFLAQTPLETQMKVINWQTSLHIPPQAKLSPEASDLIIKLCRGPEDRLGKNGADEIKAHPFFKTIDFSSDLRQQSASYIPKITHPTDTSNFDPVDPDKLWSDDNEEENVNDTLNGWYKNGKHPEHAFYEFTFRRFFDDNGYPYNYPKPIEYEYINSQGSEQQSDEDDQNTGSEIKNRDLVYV
UniProt Q8IYT8, sequence (whole entry, looked up): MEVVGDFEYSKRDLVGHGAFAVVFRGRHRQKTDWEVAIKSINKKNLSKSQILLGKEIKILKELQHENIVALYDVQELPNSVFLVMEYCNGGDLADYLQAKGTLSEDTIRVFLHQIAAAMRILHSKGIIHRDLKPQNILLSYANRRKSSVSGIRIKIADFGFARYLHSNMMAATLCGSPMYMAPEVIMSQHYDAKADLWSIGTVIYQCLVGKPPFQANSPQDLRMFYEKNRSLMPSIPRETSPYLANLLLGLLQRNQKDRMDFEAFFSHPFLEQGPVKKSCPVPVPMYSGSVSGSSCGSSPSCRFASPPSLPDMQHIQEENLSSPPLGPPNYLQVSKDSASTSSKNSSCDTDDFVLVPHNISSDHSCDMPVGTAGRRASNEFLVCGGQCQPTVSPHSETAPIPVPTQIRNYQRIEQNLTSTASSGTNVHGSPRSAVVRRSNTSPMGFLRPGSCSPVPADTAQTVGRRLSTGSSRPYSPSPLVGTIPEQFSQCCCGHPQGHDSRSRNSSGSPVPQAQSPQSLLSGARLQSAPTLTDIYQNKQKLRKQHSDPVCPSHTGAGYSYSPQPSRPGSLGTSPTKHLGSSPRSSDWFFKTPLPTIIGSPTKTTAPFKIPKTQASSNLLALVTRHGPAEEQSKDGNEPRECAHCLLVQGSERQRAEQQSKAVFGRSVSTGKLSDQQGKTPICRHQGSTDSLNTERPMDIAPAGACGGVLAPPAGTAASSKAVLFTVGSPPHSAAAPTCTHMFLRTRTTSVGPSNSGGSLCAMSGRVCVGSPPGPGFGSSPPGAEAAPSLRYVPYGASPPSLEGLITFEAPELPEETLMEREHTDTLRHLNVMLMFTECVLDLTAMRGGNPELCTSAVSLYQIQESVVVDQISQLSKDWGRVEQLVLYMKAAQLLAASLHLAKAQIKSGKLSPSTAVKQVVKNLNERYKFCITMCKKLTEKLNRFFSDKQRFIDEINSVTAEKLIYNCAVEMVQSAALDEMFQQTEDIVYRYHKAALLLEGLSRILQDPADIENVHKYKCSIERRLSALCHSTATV
UniProt P31152, sequence (whole entry, looked up): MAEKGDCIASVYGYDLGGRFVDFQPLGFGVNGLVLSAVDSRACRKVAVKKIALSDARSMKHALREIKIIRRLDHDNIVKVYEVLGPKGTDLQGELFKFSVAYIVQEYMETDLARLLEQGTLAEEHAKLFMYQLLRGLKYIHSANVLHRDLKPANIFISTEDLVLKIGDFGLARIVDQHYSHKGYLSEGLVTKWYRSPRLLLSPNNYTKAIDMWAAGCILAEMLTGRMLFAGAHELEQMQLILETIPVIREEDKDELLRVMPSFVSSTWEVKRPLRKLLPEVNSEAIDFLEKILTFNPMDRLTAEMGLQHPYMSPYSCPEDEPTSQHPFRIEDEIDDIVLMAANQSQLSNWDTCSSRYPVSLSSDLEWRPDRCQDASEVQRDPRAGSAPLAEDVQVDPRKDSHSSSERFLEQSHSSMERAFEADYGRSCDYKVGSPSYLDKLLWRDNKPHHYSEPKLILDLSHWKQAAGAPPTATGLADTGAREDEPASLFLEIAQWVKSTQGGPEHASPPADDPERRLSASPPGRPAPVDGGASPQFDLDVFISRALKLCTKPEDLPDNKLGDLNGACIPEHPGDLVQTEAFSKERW
UniProt Q86Y07, sequence (whole entry, looked up): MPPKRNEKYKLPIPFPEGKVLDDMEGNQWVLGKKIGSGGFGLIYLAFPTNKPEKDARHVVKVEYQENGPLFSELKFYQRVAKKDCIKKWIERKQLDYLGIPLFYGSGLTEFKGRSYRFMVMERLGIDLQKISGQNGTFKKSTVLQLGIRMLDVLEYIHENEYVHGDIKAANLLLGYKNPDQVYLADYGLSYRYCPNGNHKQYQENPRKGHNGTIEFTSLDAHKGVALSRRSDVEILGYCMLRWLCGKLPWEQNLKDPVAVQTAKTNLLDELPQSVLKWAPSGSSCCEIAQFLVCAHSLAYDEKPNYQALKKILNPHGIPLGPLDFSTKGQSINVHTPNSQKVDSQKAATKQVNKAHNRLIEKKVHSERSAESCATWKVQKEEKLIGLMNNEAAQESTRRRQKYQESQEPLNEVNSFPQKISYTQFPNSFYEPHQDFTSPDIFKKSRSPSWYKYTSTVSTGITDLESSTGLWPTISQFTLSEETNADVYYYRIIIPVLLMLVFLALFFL
UniProt Q86YV6, sequence (whole entry, looked up): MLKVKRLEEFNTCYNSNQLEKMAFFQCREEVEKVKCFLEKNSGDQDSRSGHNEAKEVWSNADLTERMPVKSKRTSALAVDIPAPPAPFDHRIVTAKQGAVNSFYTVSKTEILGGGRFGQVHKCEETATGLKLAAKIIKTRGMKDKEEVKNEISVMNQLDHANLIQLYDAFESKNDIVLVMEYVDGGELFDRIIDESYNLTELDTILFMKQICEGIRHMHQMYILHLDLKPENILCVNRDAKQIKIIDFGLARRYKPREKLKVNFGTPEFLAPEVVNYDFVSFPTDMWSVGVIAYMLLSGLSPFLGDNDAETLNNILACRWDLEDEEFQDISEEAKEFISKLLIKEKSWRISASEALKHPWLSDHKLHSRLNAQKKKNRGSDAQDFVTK

Series 1
Compound: Cc1nc(C2CCN(C(=O)c3ccc(OC(F)(F)F)cc3N)CC2)c2ncc(N3CCN(C)CC3)cc2n1
Concentration: 1 µM
target	read-out	method	remaining binding [%]
PLK3 (Homo sapiens, UniProt Q9H4B4)	cell-free assay	competition with immobilised ligand	100
Tyrosine-protein kinase ABL1, phosphorylated (ABL1, Homo sapiens, UniProt P00519, F317I)	binding		76
KIT (Homo sapiens, UniProt P10721, D816H)	cell-free assay	competition with immobilised ligand	100
Tyrosine-protein kinase ABL1, non-phosphorylated (ABL1, Homo sapiens, UniProt P00519, T315I)	cell-free assay	competition with immobilised ligand	89
NEK6 (Homo sapiens, UniProt Q9HC98)	cell-free assay	competition with immobilised ligand	100
CAMK4 (Homo sapiens, UniProt Q16566)	cell-free assay	competition with immobilised ligand	95
PKMYT1 (Homo sapiens, UniProt Q99640)	cell-free assay	competition with immobilised ligand	100
MAP4K1 (Homo sapiens, UniProt Q92918)	cell-free assay	competition with immobilised ligand	96
PIP5K1A (Homo sapiens, UniProt Q99755)	cell-free assay	competition with immobilised ligand	63
CAMK2B (Homo sapiens, UniProt Q13554)	cell-free assay	competition with immobilised ligand	100
TYRO3 (Homo sapiens, UniProt Q06418)	cell-free assay	competition with immobilised ligand	100
LTK (Homo sapiens, UniProt P29376)	cell-free assay	competition with immobilised ligand	86
CAMK2D (Homo sapiens, UniProt Q13557)	cell-free assay	competition with immobilised ligand	100
VRK2 (Homo sapiens, UniProt Q86Y07)	cell-free assay	competition with immobilised ligand	100
SGK2 (Homo sapiens, UniProt Q9HBY8)	cell-free assay	competition with immobilised ligand	94
LATS1 (Homo sapiens, UniProt O95835)	cell-free assay	competition with immobilised ligand	78
FLT3 (Homo sapiens, UniProt P36888, N841I)	cell-free assay	competition with immobilised ligand	100
EIF2AK2 (Homo sapiens, UniProt P19525)	cell-free assay	competition with immobilised ligand	95

Series 2
Target: MAP/microtubule affinity-regulating kinase 3 (MARK3, Homo sapiens, UniProt P27448)
UniProt P27448, sequence (whole entry, looked up): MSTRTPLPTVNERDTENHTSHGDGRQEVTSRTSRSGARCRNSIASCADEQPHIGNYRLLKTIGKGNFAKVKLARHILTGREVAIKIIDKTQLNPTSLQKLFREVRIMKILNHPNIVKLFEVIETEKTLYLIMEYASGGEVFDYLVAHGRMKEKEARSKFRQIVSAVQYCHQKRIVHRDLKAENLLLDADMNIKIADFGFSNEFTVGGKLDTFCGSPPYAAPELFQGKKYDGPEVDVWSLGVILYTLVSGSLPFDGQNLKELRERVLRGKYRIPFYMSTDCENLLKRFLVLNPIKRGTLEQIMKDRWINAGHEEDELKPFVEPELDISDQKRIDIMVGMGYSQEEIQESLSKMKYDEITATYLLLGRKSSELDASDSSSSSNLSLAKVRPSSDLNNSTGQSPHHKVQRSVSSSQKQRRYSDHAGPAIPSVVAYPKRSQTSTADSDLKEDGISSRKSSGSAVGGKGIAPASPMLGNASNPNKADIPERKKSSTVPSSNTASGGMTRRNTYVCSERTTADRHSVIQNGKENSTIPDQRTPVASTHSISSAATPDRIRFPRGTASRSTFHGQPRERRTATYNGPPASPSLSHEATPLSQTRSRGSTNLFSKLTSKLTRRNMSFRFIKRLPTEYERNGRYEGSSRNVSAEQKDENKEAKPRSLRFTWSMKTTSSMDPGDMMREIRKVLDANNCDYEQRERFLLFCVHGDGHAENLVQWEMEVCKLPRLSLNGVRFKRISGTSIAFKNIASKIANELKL
Read-out: enzyme activity
Action: inhibitor
Concentration: 0.5 µM
Relative to: control
Structure (SMILES)	remaining activity
COc1cc2c(N3CCN(C(=O)Nc4ccc(OC(C)C)cc4)CC3)ncnc2cc1OCCCN1CCCCC1	103%
Nc1nc(Nc2ccc(S(N)(=O)=O)cc2)nn1C(=S)Nc1c(F)cccc1F	0.29%
FC(F)(F)c1ccc(/C=C/c2nc(COc3ccc(CCCCn4ccnn4)cc3)co2)cc1	96.6%
O=C(O)/C=C/c1cc(Br)c(Br)c(Br)c1Br	104%
O=c1c(-c2ccc(F)cc2)c(-c2ccncc2)[nH]n1-c1ccc(Cl)cc1	87.2%
N#CC(c1ccnc(NCCc2cccnc2)n1)c1nc2ccccc2s1 (stereo not shown)	94.9%
CC(C)(C)c1nc2c3cc[nH]c(=O)c3c3cc(F)ccc3c2[nH]1	55.9%
CC(C)n1cnc2c(Nc3cccc(Cl)c3)nc(NCCO)nc21	92.3%
C[C@@H](N)[C@H]1CC[C@H](C(=O)Nc2ccncc2)CC1	97.4%
COc1cc2c(Nc3ccc(Br)cc3F)ncnc2cc1OCC1CCN(C)CC1	106%
O=C1c2ccccc2-c2nc3nnnn3nc21	78.1%
CCN(CC)CCCCN1c2ccccc2Oc2ccc(Cl)cc21	102%
NC(=O)c1cccc(-c2cc(Nc3ccc(OC(F)(F)F)cc3)ncn2)c1	100%
NC(=O)c1ccc(-c2nc(-c3ccc4c(c3)OCCO4)c(-c3ccccn3)[nH]2)cc1	105%
O=C(c1ccccc1)c1ccc(N2CCOCC2)cc1O	105%
CCCCc1c(-c2ccc(O)cc2)[nH]c2nccnc12	88.2%
O=C1NC(=O)/C(=C/c2ccc3c(c2)OC(F)(F)O3)S1	92.3%
CC(C)N(CCC(=O)c1ccc2ccccc2c1)Cc1ccccc1	101%
N#C/C(=C(/N)SC1C=CC=CC1)c1cccc(C(O)c2ccncc2)c1 (stereo not shown)	93.9%
c1cc(-c2cnn3cc(-c4ccc(OCCN5CCCCC5)cc4)cnc23)ccn1	58.4%
O=Nc1c(-c2c(O)[nH]c3ccccc23)[nH]c2ccccc12	85.8%
CNc1cc2c(Nc3cccc(Br)c3)ncnc2cn1	82.2%
Clc1ccc(Nc2nnc(Cc3ccncc3)c3ccccc23)cc1	102%

Series 3
Target: Calcium/calmodulin-dependent protein kinase type II subunit alpha (CAMK2A, Homo sapiens, UniProt Q9UQM7)
UniProt Q9UQM7, sequence (whole entry, looked up): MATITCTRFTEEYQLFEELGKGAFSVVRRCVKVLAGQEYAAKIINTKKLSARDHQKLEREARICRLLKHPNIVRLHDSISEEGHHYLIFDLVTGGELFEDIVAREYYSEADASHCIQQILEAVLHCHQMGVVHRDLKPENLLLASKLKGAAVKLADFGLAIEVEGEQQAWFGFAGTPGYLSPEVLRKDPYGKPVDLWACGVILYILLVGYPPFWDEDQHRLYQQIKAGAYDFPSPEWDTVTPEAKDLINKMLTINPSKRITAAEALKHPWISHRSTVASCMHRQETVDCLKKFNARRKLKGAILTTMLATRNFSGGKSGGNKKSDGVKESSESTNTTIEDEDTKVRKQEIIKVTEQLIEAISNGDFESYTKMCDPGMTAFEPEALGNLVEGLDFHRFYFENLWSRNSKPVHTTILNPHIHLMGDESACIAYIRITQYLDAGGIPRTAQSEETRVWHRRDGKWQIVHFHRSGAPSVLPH
Read-out: enzyme activity
Action: inhibitor
Concentration: 10 µM
SMILES	inhibition [%]
CCC(=O)NS(=O)(=O)c1ccc(NC(=O)Cc2ccc(Br)c(Oc3cc(Cl)cc(C#N)c3)c2F)c(Cl)c1	3
COc1c2c(cc3oc(CO)cc(=O)c13)O[C@H](C(C)(C)O)C2	-4
C[C@H]1C[C@H]2[C@@H]3CCC4=CC(=O)C=C[C@]4(C)[C@@]3(Cl)[C@@H](O)C[C@]2(C)[C@@]1(O)C(=O)CO	-6
C=C1C(=O)O[C@H]2C[C@H](C)C(/C=C/C(C)=O)=CC[C@H]12	-3
NC(=O)NCCCC(N)C(=O)O (stereo not shown)	24
CC(C)(C)NC[C@H](O)COc1ccccc1C1CCCC1	6
Cc1ccccc1C(=O)NCC(=O)O	5
CNCCCN1c2ccccc2CCc2ccccc21	-2
CS(C)(=O)=O	-14
COc1ccc(O)c(N)c1	10
O=C(O)CC(O)C(=O)O (stereo not shown)	-2

Series 4
SMILES: CO[C@@H]1[C@H](N(C)C(=O)c2ccccc2)C[C@H]2O[C@]1(C)n1c3ccccc3c3c4c(c5c6ccccc6n2c5c31)C(=O)NC4
Action: inhibitor
Concentration: 1 µM
target	read-out	inhibition [%]
CDC42BPG (Homo sapiens, UniProt Q6DT37)	enzyme activity	2
ULK2 (Homo sapiens, UniProt Q8IYT8)	enzyme activity	3
MYLK4 (Homo sapiens, UniProt Q86YV6)	enzyme activity	19
BRSK2 (Homo sapiens, UniProt Q8IWQ3)	enzyme activity	84
MAP3K14 (Homo sapiens, UniProt Q99558)	enzyme activity	48
NEK9 (Homo sapiens, UniProt Q8TD19)	enzyme activity	20
MAPK4 (Homo sapiens, UniProt P31152)	enzyme activity	0
ULK3 (Homo sapiens, UniProt Q6PHR2)	enzyme activity	55
LIM domain kinase 2 (LIMK2, Homo sapiens, UniProt P53671)	enzyme activity	0
Ribosomal protein S6 kinase alpha-4, N-terminal kinase domain (RPS6KA4, Homo sapiens, UniProt O75676)		55
SNRK (Homo sapiens, UniProt Q9NRH2)	enzyme activity	6
EPHA6 (Homo sapiens, UniProt Q9UF33)	enzyme activity	0

Repeated from above (series 2):
Structure (SMILES)	remaining activity
C[C@@H](N)[C@H]1CC[C@H](C(=O)Nc2ccncc2)CC1	97.4%
COc1cc2c(Nc3ccc(Br)cc3F)ncnc2cc1OCC1CCN(C)CC1	106%
O=C1c2ccccc2-c2nc3nnnn3nc21	78.1%
CCN(CC)CCCCN1c2ccccc2Oc2ccc(Cl)cc21	102%
NC(=O)c1cccc(-c2cc(Nc3ccc(OC(F)(F)F)cc3)ncn2)c1	100%
NC(=O)c1ccc(-c2nc(-c3ccc4c(c3)OCCO4)c(-c3ccccn3)[nH]2)cc1	105%
O=C(c1ccccc1)c1ccc(N2CCOCC2)cc1O	105%
